Measured values pooled from the literature.
Compare with care: the assays were run in different laboratories. Numbers after ± are the reported error.

`CC[C@H](C)[C@@H]1NC(=O)[C@@H]2CSSC[C@H](NC(=O)[C@H](Cc3ccccc3)NC(=O)[C@@H](NC(=O)[C@@H](CO)NC(=O)[C@@H](Cc3ccccc3)NC(=O)[C@@H](CC(C)C)NC(=O)[C@@H]3CCCN3C(=O)[C@@H](CC(C)C)NC(=O)[C@@H](Cc3ccccc3)NC(=O)[C@@H](CCC(=O)O)NC(=O)[C@@H](C)NC(=O)[C@@H](Cc3ccccc3)NC(=O)[C@H](N)C(C)C)CSSC[C@@H](C(=O)N[C@@H](CC(C)C)C(=O)N[C@@H](CC(N)=O)C(N)=O)NC1=O)C(=O)N[C@@H]([C@@H](C)O)C(=O)N[C@@H](CCCNC(=N)N)C(=O)N[C@@H](CCSC)C(=O)N[C@@H](CO)C(=O)N1CCC[C@H]1C(=O)N1CCC[C@H]1C(=O)N[C@@H](CCC(N)=O)C(=O)N2` — result for “remaining intact peptide”: 95% (chymotrypsin digestion; 20 h, pH 8.0, 25 °C, together with: 1 M guanidine HCl).
The remaining amount of `CCc1cccc(C)c1N(C(=O)CCl)C(C)COC` (stereo not shown) is reported as 16.8 ± 6.4% (LC-MS/MS; herbicide solution; 2 h, 4 °C, together with: 254 nm UV exposure).
`COc1ccc2cc(C(=O)NCCc3ccc(OP(=O)(CC/C=C(\C)COC(C)=O)OC)cc3)c(=O)oc2c1` (stereo not shown) has a remaining compound of 27 ± 2% (human plasma 50% in PBS; 100 µM, 24 h, pH 7.5).
With `CC[C@H](C)[C@H](N)C(=O)N[C@@H](CO)C(=O)N1CCC[C@H]1C(=O)N[C@@H](CCCNC(=N)N)C(=O)N[C@H](C(=O)N[C@@H](CC(C)C)C(=O)N[C@@H](CC(N)=O)C(=O)N[C@@H](C)C(=O)N[C@@H](Cc1c[nH]c2ccccc12)C(=O)O)[C@@H](C)O` the remaining epitope was under 50% (cytosolic extract; 1 nmol, 10 min, pH 7.4, 37 °C; baseline: time 0).
For `CC(C)Nc1nc(Cl)nc(NC(C)C)n1`, the remaining amount was 19.1 ± 12.4% (LC-MS/MS; herbicide solution; 2 h, 40 °C, together with: 254 nm UV exposure).
`C#Cc1ccc2c(c1)C(c1ccccc1F)=N[C@@H](C)c1c(C(=O)OCCC)ncn1-2` gave a remaining compound of under 5% (metabolic stability; human liver microsomes; 0.5 h).
For `CC[C@H](C)[C@@H]1NC(=O)[C@@H](Cc2ccccc2)OC(=O)CNC(=O)[C@H]([C@@H](C)CC)NC(=O)[C@@H](Cc2ccccc2)OC(=O)CNC1=O`, the remaining compound was 82% (human plasma; 2 h, 37 °C).
`Cc1cc2c(C(C)C)c(O)c(O)c(C=O)c2c(O)c1-c1c(C)cc2c(C(C)C)c(O)c(O)c(C=O)c2c1O` has a remaining concentration of 97.3% (acetonitrile extract of human plasma; 0.896 µg/mL, 24 h, 4 °C, autosampler).
The remaining compound of `CC(C)OC(=O)[C@H](CCC(=O)C=[N+]=[N-])NC(=O)OC(OC(=O)C(C)(C)C)C(C)C` (mixture of isomers) is reported as 100 ± 3% (swine plasma; 10 µM, 60 min, 37 °C).
For `CC(C)C(=O)OC[C@H]1O[C@@H](n2ccc(NO)nc2=O)[C@H](O)[C@@H]1O`, the remaining compound was 104 ± 1.44% (rat brain dialysate; 250 ng/mL, 6 h, room temperature, bench-top stability, together with: NHC 1000 ng/mL).
For `CCNc1nc(Cl)nc(NCC)n1`, the remaining amount was 38.7 ± 15% (LC-MS/MS; herbicide solution; 2 h, 4 °C, together with: 365 nm UV exposure).
For `CC[C@@H](C)[C@@H]1NC(=O)[C@@H](Cc2ccccc2)OC(=O)CN(C)C(=O)[C@H]([C@H](C)CC)NC(=O)[C@@H](Cc2ccccc2)OC(=O)CN(C)C1=O`, the remaining compound was 100% (human plasma; 2 h, 37 °C).
For `CCOCN(C(=O)CCl)c1c(C)cccc1CC`, the remaining amount was 17 ± 10.7% (LC-MS/MS; herbicide solution; 2 h, 40 °C, together with: 365 nm UV exposure).
The remaining peptide of `CC(C)[C@@H]1NC(=O)CNC(=O)[C@H](CC(N)=O)NC(=O)[C@H](CCCNC(=N)N)NC(=O)[C@H](Cc2ccc(O)cc2)NC(=O)[C@H](C(C)C)NC(=O)[C@@H](NC(=O)[C@@H](NC(=O)[C@H](CC(N)=O)NC(=O)[C@H](Cc2c[nH]c3ccccc23)NC(=O)[C@H](C)NC(=O)[C@H](Cc2ccccc2)NC(=O)CN)C(C)C)CSSC[C@@H](C(=O)N[C@@H](Cc2cnc[nH]2)C(=O)N[C@@H](CCCNC(=N)N)C(=O)N[C@@H](CCCNC(=N)N)C(=O)N[C@@H](C)C(=O)N[C@@H](CC(N)=O)C(N)=O)NC(=O)[C@H](C(C)C)NC(=O)[C@H](CCCNC(=N)N)NC1=O` is reported as under 9.76% (mouse kidney homogenate; 2560 µM, 8 h).
`CCc1cccc(CC)c1N(COC)C(=O)CCl` has a remaining amount of 2.33 ± 0.01% (LC-MS/MS; herbicide solution; 2 h, 40 °C, together with: 254 nm UV exposure).
Under “remaining intact compound”, `CC[C@H](C)[C@H](NC(=O)[C@H](CC(C)C)NC(=O)[C@H](Cc1ccccc1)NC(=O)[C@H](CCCCN)NC(=O)[C@H](CC(N)=O)NC(=O)[C@H](CC(C)C)NC(=O)[C@@H](NC(=O)[C@H](Cc1c[nH]cn1)NC(=O)[C@H](CC(=O)O)NC(=O)[C@@H](NC(=O)[C@H](CO)NC(=O)[C@H](CO)NC(=O)[C@H](Cc1ccc(O)cc1)NC(=O)[C@@H](N)CCSC)[C@@H](C)O)[C@@H](C)CC)C(=O)N[C@@H](CC(C)C)C(=O)N[C@@H](Cc1c[nH]cn1)C(=O)N[C@@H](Cc1ccc(O)cc1)C(=O)N[C@@H](C)C(=O)N[C@@H](CC(C)C)C(=O)N[C@@H](CC(N)=O)C(=O)N1CCC[C@H]1C(=O)N[C@H](C(N)=O)[C@@H](C)O` is recorded as about 70% (HPLC and LC-MS; 25% human serum in DMEM; 100 µM, 5 h, 37 °C, 2.5% DMSO).

A few entries again:
The remaining compound of `CC(C)OC(=O)[C@H](CCC(=O)C=[N+]=[N-])NC(=O)OC(OC(=O)C(C)(C)C)C(C)C` (mixture of isomers) is reported as 100 ± 3% (swine plasma; 10 µM, 60 min, 37 °C).
For `CCNc1nc(Cl)nc(NCC)n1`, the remaining amount was 38.7 ± 15% (LC-MS/MS; herbicide solution; 2 h, 4 °C, together with: 365 nm UV exposure).
For `CC[C@H](C)[C@@H]1NC(=O)[C@@H](Cc2ccccc2)OC(=O)CNC(=O)[C@H]([C@@H](C)CC)NC(=O)[C@@H](Cc2ccccc2)OC(=O)CNC1=O`, the remaining compound was 82% (human plasma; 2 h, 37 °C).
